Experimental data from different studies.
Lines come from different studies, so protocols differ. Numbers after ± are the reported error.

CC(C)(C)C(=O)OCOP(=O)(OCOC(=O)C(C)(C)C)C1CCCN(O)C1=O (stereo not drawn)
Log10TGI (MDA-MB-231): -4.7 log M

CC[C@H](C)[C@H](NC(=O)CNC(=O)[C@H](Cc1c[nH]c2ccccc12)NC(=O)[C@@H](NC(=O)[C@@H](NC(=O)[C@H](CC(C)C)NC(=O)[C@H](CCC(N)=O)NC(=O)[C@H](CC(C)C)NC(=O)[C@@H](N)CC(C)C)[C@@H](C)O)C(C)C)C(=O)N[C@@H](CCCCN)C(=O)N[C@@H](CCC(N)=O)C(=O)N[C@@H](CC(C)C)C(=O)N[C@@H](CCC(N)=O)C(=O)N[C@@H](C)C(=O)N[C@@H](CCCNC(=N)N)C(=O)N[C@H](C(=O)N[C@@H](CC(C)C)C(=O)N[C@@H](CCCCN)C(N)=O)[C@@H](C)CC
IC50 (HIV-1 HXB2; viral infection, luciferase reporter; TZM-bl): > 4000 nM

COC(=O)C1=CO[C@@H](C)[C@@H]2Cn3ccc4c5ccccc5nc-4c3C[C@H]12
IC50 (Plasmodium falciparum; growth, [3H]-hypoxanthine uptake; Dd2; 72 h): 353 ± 149 nM

Cc1cc(C(=O)Nc2nc3cccc(C)c3n2[C@H]2CCCCN(C(=O)/C=C/CN(C)C)C2)ccn1
cells in G1 phase (Trypanosoma brucei; propidium iodide flow cytometry; bloodstream form; concentration not given, 6 h): 35.3%

CC(C)C[C@H](NC(=O)[C@H](CCCNC(=N)N)NC(=O)[C@H](CCCNC(=N)N)NC(=O)[C@H](C)NC(=O)[C@H](CCC(N)=O)NC(=O)[C@H](CC(N)=O)NC(=O)[C@H](CCC(N)=O)NC(=O)[C@H](CCCCN)NC(=O)[C@H](CO)NC(=O)CNC(=O)[C@H](Cc1c[nH]c2ccccc12)NC(=O)[C@@H](NC(=O)[C@H](CO)NC(=O)[C@H](CC(C)C)NC(=O)[C@H](CCC(N)=O)NC(=O)[C@H](CCC(=O)O)NC(=O)[C@@H](N)CC(C)C)C(C)C)C(N)=O
IC50 (HIV-1 HXB2; viral infection, luciferase reporter; TZM-bl): > 4000 nM

CC[C@H](C)[C@H](NC(=O)[C@H](Cc1c[nH]c2ccccc12)NC(=O)c1ccccc1)C(=O)N[C@H](C(=O)N[C@@H](Cc1ccc(O)cc1)C(=O)N[C@@H](CCCCN)C(=O)N[C@@H](Cc1c[nH]c2ccccc12)C(=O)N1CCC[C@@H]1C(=O)N[C@@H](CCCNC(=N)N)C(=O)N[C@@H](CCCCN)C(=O)N[C@H](C(=O)N[C@H](C(=O)N[C@@H](CCCNC(=N)N)C(=O)N[C@@H](Cc1ccc(O)cc1)C(=O)N[C@@H](Cc1c[nH]c2ccccc12)C(=O)N[C@H](C(=O)NCC(=O)N[C@@H](CCCCN)C(=O)N[C@@H](CCCNC(=N)N)C(N)=O)[C@@H](C)O)C(C)C)C(C)C)C(C)C
IC50 (Corynebacterium glutamicum; growth; ATCC 13032): 40 nM

O=C1NC2(CC2)COc2ncc(F)cc2[C@H]2COCCN2c2ccn3ncc1c3n2
prothrombin time (Sprague-Dawley rat, female, plasma; oral, 20 mg/kg/day, end of recovery, 4-week repeated-dose toxicity): 8.3 ± 0.2 s

COc1ccccc1-c1n[nH]c2nc(NC3CCN(C(=O)Cc4ccc(F)cc4F)CC3)ncc12
relative abundance (bead binding, competition bead pull-down, refers to: LMJF.03.0190; Leishmania donovani axenic amastigote extract; 10 µM; relative to: vehicle): 0.74

Oc1c(Br)cc(Br)c2nc3cc(C(F)(F)F)ccc3nc12
IC50 (Acinetobacter baumannii; microbial growth; 19606): 3100 nM

Cc1cc(Oc2nc(N3CC[C@@H](c4ccncc4)C3)ncc2F)[nH]n1
IC50 (Cervix cancer cell lines; cell proliferation): 44700 nM

CC(=O)O[C@H]1C[C@H](O[C@H]2[C@@H](O)C[C@H](O[C@H]3[C@@H](O)C[C@H](O[C@H]4CC[C@@]5(C)[C@H](CC[C@@H]6[C@@H]5C[C@@H](O)[C@]5(C)[C@@H](C7=CC(=O)OC7)CC[C@]65O)C4)O[C@@H]3C)O[C@@H]2C)O[C@H](C)[C@H]1O[C@@H]1O[C@H](CO)[C@@H](O)[C@H](O)[C@H]1O
IC50 (human alphaherpesvirus 1; K26 GFP, 3D adult human skin submerged; 48 h): 170 nM

COc1ccccc1-c1n[nH]c2nc(N[C@H]3CC[C@H](NS(=O)(=O)CC(C)C)CC3)ncc12
relative abundance (bead binding, competition bead pull-down, refers to: LMJF.27.2400; Leishmania donovani extract; 10 µM; relative to: vehicle): 1.99

NCC(=O)NCC(=O)N[C@@H](Cc1c[nH]cn1)C(=O)O
IC50 (hepatitis C virus; viral replication, luciferase reporter; Huh-7 ET replicon; 72 h): > 100000 nM

NCCC[C@@H]1NC(=O)[C@@H](CCCN)NC(=O)[C@H](Cc2ccccc2)NC(=O)[C@@H](Cc2cccc(F)c2)NC(=O)[C@H](Cc2ccccc2)NC(=O)[C@@H](CCCN)NC1=O
IC50 (Balamuthia mandrillaris; parasite growth, ATP luminescence): 14100 nM

O=C(Oc1cc(OC(=O)c2cc(O)c(O)c(O)c2)c2ccccc2c1)c1cc(O)c(O)c(O)c1
IC50 (human alphaherpesvirus 2; viral replication, RT-qPCR; acyclovir-resistant): 1420 ± 220 nM

CC[C@H](C)[C@H](NC(=O)[C@H](Cc1c[nH]c2ccccc12)NC(=O)c1ccccc1)C(=O)N[C@H](C(=O)N[C@@H](Cc1ccc(O)cc1)C(=O)N[C@@H](CCCCN)C(=O)N[C@@H](Cc1c[nH]c2ccccc12)C(=O)N[C@H](CCCNC(=N)N)C(=O)N[C@@H](CCCNC(=N)N)C(=O)N[C@@H](CCCCN)C(=O)N[C@H](C(=O)N[C@H](C(=O)N[C@@H](CCCNC(=N)N)C(=O)N[C@@H](Cc1ccc(O)cc1)C(=O)N[C@@H](Cc1c[nH]c2ccccc12)C(=O)N[C@H](C(=O)NCC(=O)N[C@@H](CCCCN)C(=O)N[C@@H](CCCNC(=N)N)C(N)=O)[C@@H](C)O)C(C)C)C(C)C)C(C)C
IC50 (Corynebacterium glutamicum; growth; ATCC 13032): 20 nM

C=CC(=O)N1CC/C(=C\c2ccc(F)c([N+](=O)[O-])c2)C(=O)/C(=C/c2ccc(F)c([N+](=O)[O-])c2)C1
IC50 (human alphaherpesvirus 1; K26 GFP, 3D adult human skin submerged; 48 h): > 10000 nM

Cc1nc2c(NCc3cccc(S(C)(=O)=O)c3)nccn2c1-c1ccc(O)c(F)c1
IC50 (Rhinovirus C; viral replication, high-content imaging; RV-C15a-mGL): 29 ± 20 nM

A few entries again:
COc1ccccc1-c1n[nH]c2nc(N[C@H]3CC[C@H](NS(=O)(=O)CC(C)C)CC3)ncc12
relative abundance (bead binding, competition bead pull-down, refers to: LMJF.27.2400; Leishmania donovani extract; 10 µM; relative to: vehicle): 1.99

NCC(=O)NCC(=O)N[C@@H](Cc1c[nH]cn1)C(=O)O
IC50 (hepatitis C virus; viral replication, luciferase reporter; Huh-7 ET replicon; 72 h): > 100000 nM
